Results pooled from the literature.
Compare with care: the assays were run in different laboratories. Several values in a cell are separate wells, animals, samples, runs or records. Numbers after ± are the reported error.
Target: Acetylcholinesterase (ache, Electrophorus electricus, UniProt O42275)
Action: inhibitor

| SMILES | assay | setting | IC50 |
| --- | --- | --- | --- |
| O=C(COc1ccc(Sc2ccc(OCC(=O)N/N=C/c3ccc(Cl)cc3Cl)cc2)cc1)N/N=C/c1ccc(Cl)cc1Cl | enzyme activity |  | 47.3 µM |
| COc1cc2c(cc1OC)[C@@H]1Cc3ccc(OC)c(OC)c3C[N+]1(C)CC2 (stereo partly drawn) | enzyme activity |  | 21.2 µM |
| COc1cc(CCC(=O)N2CCC(Cc3ccccc3)CC2)ccc1OCCCCN1CCCCC1 | enzyme activity, Ellman |  | 7.6 µM |
| COc1cc2c(cc1OC)C(=O)C1(C2)C(c2ccccc2Cl)C(Cc2ccccc2)NC12C(=O)Nc1ccc(OC(F)(F)F)cc12 (stereo not drawn) | enzyme activity | pH 8 | > 10 µM and 17.1 µM |
| Cc1ccc(-c2nc3ccc(/N=N/c4ccc([N+](=O)[O-])cc4)cc3c(-c3ccccc3)c2I)cc1 | enzyme activity, Ellman | pH 7.4 | 8.4 µM |
| COc1cc2c(cc1O)C1Cc3ccc(O)c(OC)c3C[N+]1(C)CC2 (stereo not drawn) | enzyme activity |  | 11.3 µM |
| COc1cc2c(cc1OC)C(=O)C1(C2)C(c2ccccc2)C(Cc2c[nH]c3ccccc23)NC12C(=O)Nc1ccc(OC(F)(F)F)cc12 (stereo not drawn) | enzyme activity | pH 8 | < 10 µM and 5.94 µM |
| O=[N+]([O-])c1ccc(/N=N/c2ccc3nc(-c4ccccc4)cc(-c4ccccc4)c3c2)cc1 | enzyme activity, Ellman | pH 7.4 | 16.8 µM |
| COc1cc2c(cc1OC)C(=O)C1(C2)C(c2cccc([N+](=O)[O-])c2)C(Cc2c[nH]c3ccccc23)NC12C(=O)Nc1ccc(OC(F)(F)F)cc12 (stereo not drawn) | enzyme activity | pH 8 | 2.54 ± 0.1 µM |
| Cc1cccc(C[n+]2cccc(NC(=O)CN3C(=O)c4ccccc4C3=O)c2)c1 | enzyme activity, Ellman |  | 4.8 µM |
| COc1ccc2c(c1OC)C(O)C1c3c(cc4c(c3-2)OCO4)CCN1C (stereo not drawn) | enzyme activity |  | 4.3 µM |
| COc1cc2c(cc1OC)C(=O)C1(C2)C(c2ccccc2Cl)C(Cc2c[nH]c3ccccc23)NC12C(=O)Nc1ccc(OC(F)(F)F)cc12 (stereo not drawn) | enzyme activity | pH 8 | 9.12 µM and < 10 µM |
| O=c1oc2c(CNCCc3cccc(F)c3)c(O)ccc2c2c1CCC2 | enzyme activity, Ellman |  | 0.482 µM |
| O=C(COc1ccc(Sc2ccc(OCC(=O)N/N=C/c3cccc4ccccc34)cc2)cc1)N/N=C/c1cccc2ccccc12 | enzyme activity |  | 131 µM |
| C=CCc1ccc(OCc2ccccc2)c(OC)c1 | enzyme activity, Ellman | pH 7.5 | 174 µM |
| CCCCCn1c(SC(C(=O)NCc2ccccc2)C(=O)NCc2ccccc2)nc2cc(C(=O)Nc3cccc(C(F)(F)F)c3)ccc2c1=O |  |  | 6.1 µM |
| COc1cc(/C=C/C(=O)CC(=O)/C=C/c2ccc(OC(=O)CCc3c[nH]c4ccccc34)c(OC)c2)ccc1OC(=O)CCc1c[nH]c2ccccc12 | enzyme activity | with preincubation | 5.66 µM |
| C/C=C/c1ccc(OCc2ccccc2)c(OC)c1 | enzyme activity, Ellman | pH 7.5 | 176 µM |
| Clc1ccc(/N=N/c2ccc3nc(-c4ccccc4)c(I)c(-c4ccccc4)c3c2)cc1 | enzyme activity, Ellman | pH 7.4 | 15.9 µM |
| COc1cc(/C=N/NC(=O)COc2ccc(Sc3ccc(OCC(=O)N/N=C/c4ccc(O)c(OC)c4)cc3)cc2)ccc1O | enzyme activity |  | 45.4 µM |
| COc1ccc(CNc2c(NC3CCN(Cc4ccccc4)CC3)c(=O)c2=O)cc1OC | enzyme activity, Ellman |  | 5.6 µM |

| SMILES | assay | setting | IC50 |
| --- | --- | --- | --- |
| COc1cc(/C=N/NC(=O)COc2ccc(Sc3ccc(OCC(=O)N/N=C/c4cc(OC)c(OC)c(OC)c4)cc3)cc2)cc(OC)c1OC | enzyme activity |  | 67 µM |
| COc1cc2c(cc1OC)C(NCC1CCN(Cc3ccccc3)CC1)CC2=O (stereo not drawn) | enzyme activity, Ellman |  | 0.991 µM |
| COc1cccc(/C=N/NC(=O)COc2ccc(Sc3ccc(OCC(=O)N/N=C/c4cccc(OC)c4O)cc3)cc2)c1O | enzyme activity |  | 27.8 µM |
| CC(=O)C1=C(C)NC(SCCCSc2nnc(Cc3ccccc3Nc3c(Cl)cccc3Cl)n2-c2ccc(Cl)c(Cl)c2)=NC1c1ccc(C)cc1 (stereo not drawn) | enzyme activity, Ellman |  | 0.1 µM |
| COc1cc2c(cc1OC)C(=O)C(=CCC1CCN(Cc3ccccc3)CC1)C2 | enzyme activity, Ellman |  | 0.036 µM |
| Cc1cccc(C[n+]2ccc(NC(=O)CN3C(=O)c4ccccc4C3=O)cc2)c1 | enzyme activity, Ellman |  | 5.4 µM |
| CCCCc1nc2ccc(/N=N/c3ccc(Br)cc3)cc2c(-c2ccccc2)c1I | enzyme activity, Ellman | pH 7.4 | 7 µM |
| Cn1c(=N)c2[nH]c(=O)n(C)c2n(C)c1=O | enzyme activity |  | 24 µM |
| N=C(N)N/N=C(/C=C/c1ccccc1)c1cn(Cc2ccccc2)c2ccccc12 | enzyme activity, Ellman |  | 146 µM |
| CC(=O)c1c(O)ccc2ccc(=O)oc12 | enzyme activity, Ellman |  | 23.7 µM |
| O=C(Cc1ccccc1Nc1c(Cl)cccc1Cl)NNC(=S)Nc1ccc(Cl)c(Cl)c1 | enzyme activity, Ellman |  | 0.79 µM |
| O=S(=O)(Nc1cc(Cl)c(O)c(Cl)c1)c1cccc2cccnc12 | enzyme activity, Ellman |  | 2.34 µM |
| O=Cc1ccc(/C=N/NC(=O)COc2ccc(Sc3ccc(OCC(=O)N/N=C/c4ccc(C=O)cc4)cc3)cc2)cc1 | enzyme activity |  | 148 µM |
| COc1ccc(C2C(Cc3ccccc3)NC3(C(=O)Nc4ccc(OC(F)(F)F)cc43)C23Cc2cc(OC)c(OC)cc2C3=O)cc1 (stereo not drawn) | enzyme activity | pH 8 | 3.24 ± 0.18 µM |
| Nc1ccc(CCNc2c(NC3CCN(Cc4ccccc4)CC3)c(=O)c2=O)cc1 | enzyme activity, Ellman |  | 6.9 µM |
| CN1CCc2cc3c(c4c2C1C(O)c1ccccc1-4)OCO3 (single isomer, unassigned; (-)) | enzyme activity |  | 17.6 µM |
| Cc1c2[nH]c3cc(Br)ccc3c2cc[n+]1C | enzyme activity |  | 0.47 µM |
| O=C(CN1C(=O)c2ccccc2C1=O)Nc1cc[n+](Cc2cccc(F)c2)cc1 | enzyme activity, Ellman |  | 2.7 µM |
| COc1cc(O)cc(-c2cc3ccc(O)c(C/C=C(\C)CCC=C(C)C)c3o2)c1CC=C(C)C | enzyme activity |  | > 200 µM |
| COc1cc2c(cc1OC)C(=O)C1(C2)C(c2ccccc2OC)C(Cc2c[nH]c3ccccc23)NC12C(=O)Nc1ccc(OC(F)(F)F)cc12 (stereo not drawn) | enzyme activity | pH 8 | 2.48 ± 0.22 µM |
| COc1cc2c(cc1OC(C)=O)CCN1Cc3c(ccc(OC(C)=O)c3OC)C[C@@H]21 | enzyme activity |  | 150 µM |

Some of these lines once more:
| SMILES | assay | setting | IC50 |
| --- | --- | --- | --- |
| COc1cc2c(cc1OC)[C@@H]1Cc3ccc(OC)c(OC)c3C[N+]1(C)CC2 (stereo partly drawn) | enzyme activity |  | 21.2 µM |
| COc1cc(CCC(=O)N2CCC(Cc3ccccc3)CC2)ccc1OCCCCN1CCCCC1 | enzyme activity, Ellman |  | 7.6 µM |
| COc1cc2c(cc1OC)C(=O)C1(C2)C(c2ccccc2Cl)C(Cc2ccccc2)NC12C(=O)Nc1ccc(OC(F)(F)F)cc12 (stereo not drawn) | enzyme activity | pH 8 | > 10 µM and 17.1 µM |
| Cc1ccc(-c2nc3ccc(/N=N/c4ccc([N+](=O)[O-])cc4)cc3c(-c3ccccc3)c2I)cc1 | enzyme activity, Ellman | pH 7.4 | 8.4 µM |
| COc1cc2c(cc1O)C1Cc3ccc(O)c(OC)c3C[N+]1(C)CC2 (stereo not drawn) | enzyme activity |  | 11.3 µM |
| COc1cc2c(cc1OC)C(=O)C1(C2)C(c2ccccc2)C(Cc2c[nH]c3ccccc23)NC12C(=O)Nc1ccc(OC(F)(F)F)cc12 (stereo not drawn) | enzyme activity | pH 8 | < 10 µM and 5.94 µM |
